Published values of several laboratories.
Each numbered part is a random draw from the data of one study; scales do not carry over between parts. “And” joins repeats or separate records; there may be more than shown.
UniProt P68400, sequence (whole entry, looked up): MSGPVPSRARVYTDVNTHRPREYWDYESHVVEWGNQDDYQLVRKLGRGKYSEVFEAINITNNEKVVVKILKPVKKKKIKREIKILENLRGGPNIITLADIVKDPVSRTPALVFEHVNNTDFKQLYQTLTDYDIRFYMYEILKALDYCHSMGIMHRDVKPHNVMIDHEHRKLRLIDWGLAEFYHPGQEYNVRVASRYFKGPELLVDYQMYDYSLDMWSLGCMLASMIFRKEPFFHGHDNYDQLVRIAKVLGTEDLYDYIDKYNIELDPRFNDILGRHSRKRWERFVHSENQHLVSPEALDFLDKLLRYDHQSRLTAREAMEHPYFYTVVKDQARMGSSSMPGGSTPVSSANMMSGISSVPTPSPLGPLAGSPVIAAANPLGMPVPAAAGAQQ
UniProt Q9NSY1, sequence (whole entry, looked up): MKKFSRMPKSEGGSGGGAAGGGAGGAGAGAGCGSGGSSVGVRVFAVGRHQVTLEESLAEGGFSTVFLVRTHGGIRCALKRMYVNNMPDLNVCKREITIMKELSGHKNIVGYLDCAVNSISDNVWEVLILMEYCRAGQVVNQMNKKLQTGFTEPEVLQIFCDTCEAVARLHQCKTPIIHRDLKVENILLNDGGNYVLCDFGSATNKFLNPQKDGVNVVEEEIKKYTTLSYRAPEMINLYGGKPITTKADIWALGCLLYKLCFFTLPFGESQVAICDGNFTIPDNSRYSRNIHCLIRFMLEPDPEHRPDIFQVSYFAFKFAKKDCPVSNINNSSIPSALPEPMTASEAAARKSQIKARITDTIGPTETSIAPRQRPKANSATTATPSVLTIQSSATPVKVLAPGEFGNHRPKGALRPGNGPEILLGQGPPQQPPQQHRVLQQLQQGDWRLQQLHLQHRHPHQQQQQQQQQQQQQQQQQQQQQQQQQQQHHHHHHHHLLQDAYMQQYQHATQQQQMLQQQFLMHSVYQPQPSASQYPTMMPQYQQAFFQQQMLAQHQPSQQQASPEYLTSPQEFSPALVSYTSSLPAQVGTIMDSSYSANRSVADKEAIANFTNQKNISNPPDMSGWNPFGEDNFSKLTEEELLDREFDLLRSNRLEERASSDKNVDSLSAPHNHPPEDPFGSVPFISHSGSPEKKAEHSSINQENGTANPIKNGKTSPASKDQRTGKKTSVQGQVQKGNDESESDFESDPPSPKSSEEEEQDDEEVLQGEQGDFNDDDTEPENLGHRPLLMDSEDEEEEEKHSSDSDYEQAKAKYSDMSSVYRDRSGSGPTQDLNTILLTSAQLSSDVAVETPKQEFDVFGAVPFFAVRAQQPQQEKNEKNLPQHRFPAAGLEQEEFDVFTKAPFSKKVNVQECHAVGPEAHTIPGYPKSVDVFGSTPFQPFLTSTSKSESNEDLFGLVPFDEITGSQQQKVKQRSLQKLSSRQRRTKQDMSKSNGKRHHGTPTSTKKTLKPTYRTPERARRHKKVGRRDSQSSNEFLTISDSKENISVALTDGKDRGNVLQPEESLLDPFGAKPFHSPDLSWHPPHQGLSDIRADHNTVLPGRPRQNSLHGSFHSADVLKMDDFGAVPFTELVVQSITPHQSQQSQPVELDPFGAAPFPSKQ
UniProt Q52WX2, sequence (whole entry, looked up): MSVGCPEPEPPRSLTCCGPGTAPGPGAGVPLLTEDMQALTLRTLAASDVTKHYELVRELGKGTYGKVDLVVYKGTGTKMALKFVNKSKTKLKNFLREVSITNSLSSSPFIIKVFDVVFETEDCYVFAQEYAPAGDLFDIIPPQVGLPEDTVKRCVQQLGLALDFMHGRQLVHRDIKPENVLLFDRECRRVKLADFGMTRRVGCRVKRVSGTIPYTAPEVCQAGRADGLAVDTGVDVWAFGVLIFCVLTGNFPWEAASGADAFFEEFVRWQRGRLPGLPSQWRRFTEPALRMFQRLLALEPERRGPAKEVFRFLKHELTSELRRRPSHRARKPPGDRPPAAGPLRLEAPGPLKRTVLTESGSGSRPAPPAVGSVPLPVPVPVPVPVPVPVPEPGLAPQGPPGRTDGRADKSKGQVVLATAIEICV
UniProt Q15831, sequence (whole entry, looked up): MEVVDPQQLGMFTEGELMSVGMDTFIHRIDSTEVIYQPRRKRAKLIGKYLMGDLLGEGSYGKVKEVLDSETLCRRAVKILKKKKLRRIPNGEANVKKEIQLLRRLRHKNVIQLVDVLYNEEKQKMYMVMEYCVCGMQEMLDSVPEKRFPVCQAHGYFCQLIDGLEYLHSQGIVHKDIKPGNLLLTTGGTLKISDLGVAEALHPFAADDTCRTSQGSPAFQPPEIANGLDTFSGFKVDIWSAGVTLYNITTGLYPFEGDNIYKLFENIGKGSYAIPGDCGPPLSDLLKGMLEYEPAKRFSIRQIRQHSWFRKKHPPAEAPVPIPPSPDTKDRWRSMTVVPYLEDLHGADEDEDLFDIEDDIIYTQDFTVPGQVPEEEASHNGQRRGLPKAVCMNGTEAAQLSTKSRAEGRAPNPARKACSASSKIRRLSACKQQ
UniProt O15264, sequence (whole entry, looked up): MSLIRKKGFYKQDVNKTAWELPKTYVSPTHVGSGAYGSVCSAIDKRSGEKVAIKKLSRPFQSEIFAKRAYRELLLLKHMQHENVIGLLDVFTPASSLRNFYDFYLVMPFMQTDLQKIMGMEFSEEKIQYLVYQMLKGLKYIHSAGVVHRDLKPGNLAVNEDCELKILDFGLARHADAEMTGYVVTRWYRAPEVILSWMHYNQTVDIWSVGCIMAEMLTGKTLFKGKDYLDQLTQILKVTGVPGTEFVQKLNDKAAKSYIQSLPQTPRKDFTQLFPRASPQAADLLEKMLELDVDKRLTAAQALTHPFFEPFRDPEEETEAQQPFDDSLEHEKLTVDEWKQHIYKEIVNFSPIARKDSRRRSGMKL
UniProt Q9NYY3, sequence (whole entry, looked up): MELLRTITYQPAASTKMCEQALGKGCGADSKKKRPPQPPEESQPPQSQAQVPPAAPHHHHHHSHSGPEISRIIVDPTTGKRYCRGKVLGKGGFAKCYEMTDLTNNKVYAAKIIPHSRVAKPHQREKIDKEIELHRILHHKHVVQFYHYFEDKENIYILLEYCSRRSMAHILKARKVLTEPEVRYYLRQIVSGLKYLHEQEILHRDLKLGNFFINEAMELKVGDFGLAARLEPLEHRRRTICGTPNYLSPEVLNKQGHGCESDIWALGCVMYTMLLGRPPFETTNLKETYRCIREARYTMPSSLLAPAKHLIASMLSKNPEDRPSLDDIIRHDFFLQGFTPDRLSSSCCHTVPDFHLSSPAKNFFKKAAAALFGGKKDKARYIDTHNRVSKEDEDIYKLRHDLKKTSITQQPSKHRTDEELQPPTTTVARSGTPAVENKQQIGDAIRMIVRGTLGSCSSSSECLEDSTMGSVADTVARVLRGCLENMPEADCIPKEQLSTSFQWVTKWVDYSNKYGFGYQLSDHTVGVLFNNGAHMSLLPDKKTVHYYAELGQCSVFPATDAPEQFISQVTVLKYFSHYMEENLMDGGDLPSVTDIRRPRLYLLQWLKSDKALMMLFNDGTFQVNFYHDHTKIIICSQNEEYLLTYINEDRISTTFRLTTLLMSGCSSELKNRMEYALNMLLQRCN
UniProt Q9Y243, sequence (whole entry, looked up): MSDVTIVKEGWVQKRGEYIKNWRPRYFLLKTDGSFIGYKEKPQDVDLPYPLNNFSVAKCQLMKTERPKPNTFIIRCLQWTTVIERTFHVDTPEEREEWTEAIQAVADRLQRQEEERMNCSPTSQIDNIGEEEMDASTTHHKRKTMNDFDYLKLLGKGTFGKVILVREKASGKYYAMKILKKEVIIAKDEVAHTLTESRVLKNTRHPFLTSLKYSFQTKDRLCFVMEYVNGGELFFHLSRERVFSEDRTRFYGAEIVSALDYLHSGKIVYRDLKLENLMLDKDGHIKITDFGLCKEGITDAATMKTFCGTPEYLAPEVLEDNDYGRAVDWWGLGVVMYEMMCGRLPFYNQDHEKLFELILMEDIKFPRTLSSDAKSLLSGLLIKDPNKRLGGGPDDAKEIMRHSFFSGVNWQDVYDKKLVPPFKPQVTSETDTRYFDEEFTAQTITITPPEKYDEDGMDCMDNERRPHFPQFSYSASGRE
UniProt P53778, sequence (whole entry, looked up): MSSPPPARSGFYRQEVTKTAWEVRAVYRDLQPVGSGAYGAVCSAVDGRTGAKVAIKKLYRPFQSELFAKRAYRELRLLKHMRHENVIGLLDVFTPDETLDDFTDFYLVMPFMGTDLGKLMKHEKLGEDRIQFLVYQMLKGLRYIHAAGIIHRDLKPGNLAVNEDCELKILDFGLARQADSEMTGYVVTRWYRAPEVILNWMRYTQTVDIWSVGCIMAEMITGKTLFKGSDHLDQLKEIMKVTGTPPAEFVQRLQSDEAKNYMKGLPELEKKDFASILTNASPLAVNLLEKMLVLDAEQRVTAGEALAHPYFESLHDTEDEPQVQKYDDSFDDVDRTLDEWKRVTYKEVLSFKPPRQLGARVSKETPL

Sample 1 — cell line: mouse MPNST tumor cells; method: high-content nuclear imaging; measured: cell number; tested at: 10 µM; time: 12 h; notes: mean of 2 replicates; reference: plate mean; direction: higher = more cells
Compound	nuclei count
Cc1cc(CN2CCN(c3c(Br)cnc4nc(-c5ccc(N6CCN(C)CC6)cc5)[nH]c34)CC2)no1	-2.68 z-score
O=C(Nc1ccc(Cl)cc1)Nc1cccc(-c2cccc(N3CCCC3)n2)c1	3.48 z-score
O=C(O)/C=C/c1ccc(Cn2ccnc2)cc1	2.17 z-score
O=C1CC[C@@H](C(=O)N2CSC[C@H]2C(=O)O)N1	0.488 z-score
O=C(NCc1ccc2c(c1)OCO2)c1c(Cl)cccc1Cl	0.45 z-score
OC(CCN1CCCCC1)(c1ccccc1)C1CCCCC1 (stereo not drawn)	2.15 z-score and 2.8 z-score
O=S(=O)(NCC1CC1)c1ccc(Nc2nccc(N3CCCc4cc(O)ccc43)n2)cc1	-2.83 z-score
CCOC(=O)c1ccc(OC(=O)CCCCCNC(=N)N)cc1	1.05 z-score
Cc1cccc(N2CCN(C(=O)c3cc(S(=O)(=O)N(C)C)ccc3N3CCCC3)CC2)c1C	3.45 z-score

Sample 2 — effect on: enzyme activity; mode: inhibitor; tested at: 0.5 µM; reference: control
SMILES: C[C@@H](N)[C@H]1CC[C@H](C(=O)Nc2ccncc2)CC1
target	remaining activity [%]
Tyrosine-protein kinase Lyn (LYN, Homo sapiens, UniProt P07948)	98.9
Dual specificity mitogen-activated protein kinase kinase 6 (MAP2K6, Homo sapiens, UniProt P52564)	92.5
cGMP-dependent protein kinase 1 (PRKG1, Homo sapiens, UniProt Q13976)	73
Casein kinase II subunit alpha (CSNK2A1, Homo sapiens, UniProt P68400)	96.6
Mitogen-activated protein kinase kinase kinase 10 (MAP3K10, Homo sapiens, UniProt Q02779)	98.9
Serine/threonine-protein kinase WNK2 (WNK2, Homo sapiens, UniProt Q9Y3S1)	103
Leucine-rich repeat serine/threonine-protein kinase 2 (LRRK2, Homo sapiens, UniProt Q5S007)	67.8
Interleukin-1 receptor-associated kinase 4 (IRAK4, Homo sapiens, UniProt Q9NWZ3)	85.5
Mast/stem cell growth factor receptor Kit (KIT, Homo sapiens, UniProt P10721)	93.8
Mitogen-activated protein kinase 13 (MAPK13, Homo sapiens, UniProt O15264)	96
Serine/threonine-protein kinase PLK2 (PLK2, Homo sapiens, UniProt Q9NYY3)	91.2
Mitogen-activated protein kinase kinase kinase kinase 2 (MAP4K2, Homo sapiens, UniProt Q12851)	94.4
Protein kinase C delta type (PRKCD, Homo sapiens, UniProt Q05655)	66.4
Mitogen-activated protein kinase 12 (MAPK12, Homo sapiens, UniProt P53778)	97.6
MAP kinase-interacting serine/threonine-protein kinase 2 (MKNK2, Homo sapiens, UniProt Q9HBH9)	79.1
Casein kinase I isoform alpha (CSNK1A1, Homo sapiens, UniProt P48729)	103
Serine/threonine-protein kinase Nek4 (NEK4, Homo sapiens, UniProt P51957)	87.7
Tyrosine-protein kinase BTK (BTK, Homo sapiens, UniProt Q06187)	105
RAC-gamma serine/threonine-protein kinase (AKT3, Homo sapiens, UniProt Q9Y243)	97.3
Ephrin type-A receptor 5 (EPHA5, Homo sapiens, UniProt P54756)	91.4
Serine/threonine-protein kinase 38 (STK38, Homo sapiens, UniProt Q15208)	106
Protein kinase C iota type (PRKCI, Homo sapiens, UniProt P41743)	101
Serine/threonine-protein kinase Chk1 (CHEK1, Homo sapiens, UniProt O14757)	91
Cyclin-dependent kinase 9, with cyclin T1 (CDK9, Homo sapiens, UniProt P50750)	85.7

Sample 3 — host: C57BL/6 CES1-/- mice, MC-38 tumour; dose: dose not given; with: anti-PD-1; reference: initial
SMILES: CC(=O)N[C@@H](Cc1c[nH]c2ccccc12)C(=O)N[C@@H](CCC(=O)C=[N+]=[N-])C(=O)OC(C)C
setting	body weight
day 33 after inoculation	98.5% and 99.5% and 98% and 98.7% and 97.2% and 93.2% and 93.3%
day 73 after inoculation	104% and 109%
day 26 after inoculation	95.2% and 98.6% and 99.5% and 98.8% and 97.4% and 101%
day 70 after inoculation	104% and 106% and 107%

Sample 4 — effect on: cell-free assay; method: competition with immobilised ligand; tested at: 1 µM
SMILES: Cc1noc([C@H]2C[C@@H](c3ccc(C(F)(F)F)cc3)CN(C(=O)N3CCS(=O)(=O)C3)C2)n1
target	remaining binding
Ribosomal protein S6 kinase alpha-6, C-terminal kinase domain (RPS6KA6, Homo sapiens, UniProt Q9UK32)	100%
Serine/threonine-protein kinase STK11 (STK11, Homo sapiens, UniProt Q15831)	100%
Serine/threonine-protein kinase 36 (STK36, Homo sapiens, UniProt Q9NRP7)	100%
Serine/threonine-protein kinase PLK1 (PLK1, Homo sapiens, UniProt P53350)	81%
Serine/threonine-protein kinase TAO3 (TAOK3, Homo sapiens, UniProt Q9H2K8)	100%
Cyclin-dependent kinase 13 (CDK13, Homo sapiens, UniProt Q14004)	96%
Serine/threonine-protein kinase 16 (STK16, Homo sapiens, UniProt O75716)	100%
Serine/threonine-protein kinase SBK1 (SBK1, Homo sapiens, UniProt Q52WX2)	100%
Phosphatidylinositol 4,5-bisphosphate 3-kinase catalytic subunit alpha isoform (PIK3CA, Homo sapiens, UniProt P42336, Q546K)	100%
Ephrin type-A receptor 7 (EPHA7, Homo sapiens, UniProt Q15375)	100%
Epidermal growth factor receptor (EGFR, Homo sapiens, UniProt P00533, T790M)	77%
Hepatocyte growth factor receptor (MET, Homo sapiens, UniProt P08581, Y1235D)	100%
Dual specificity tyrosine-phosphorylation-regulated kinase 1B (DYRK1B, Homo sapiens, UniProt Q9Y463)	76%
BMP-2-inducible protein kinase (BMP2K, Homo sapiens, UniProt Q9NSY1)	100%
MAP/microtubule affinity-regulating kinase 4 (MARK4, Homo sapiens, UniProt Q96L34)	84%
Mitogen-activated protein kinase kinase kinase 3 (MAP3K3, Homo sapiens, UniProt Q99759)	84%
Mitogen-activated protein kinase kinase kinase 19 (MAP3K19, Homo sapiens, UniProt Q56UN5)	77%

Excerpt of the above (sample 4):
target	remaining binding
Serine/threonine-protein kinase STK11 (STK11, Homo sapiens, UniProt Q15831)	100%
Serine/threonine-protein kinase 36 (STK36, Homo sapiens, UniProt Q9NRP7)	100%
Serine/threonine-protein kinase PLK1 (PLK1, Homo sapiens, UniProt P53350)	81%
Serine/threonine-protein kinase TAO3 (TAOK3, Homo sapiens, UniProt Q9H2K8)	100%
Cyclin-dependent kinase 13 (CDK13, Homo sapiens, UniProt Q14004)	96%
Serine/threonine-protein kinase 16 (STK16, Homo sapiens, UniProt O75716)	100%
